{"data": "Measurements of several laboratories", "note": "Each numbered part is a random draw from the data of one study; scales do not carry over between parts. Substitutions count along the parent as printed."}
{"data": "Block 1", "target": "JDP2, bZIP domain (human)", "method": "DHFR protein complementation", "medium": "yeast", "setting": "single substitutions, most at no-binding floor", "reference": "wild-type JUN-FOS pair", "direction": "higher = stronger binding", "starting sequence": "JUN, bZIP domain (human); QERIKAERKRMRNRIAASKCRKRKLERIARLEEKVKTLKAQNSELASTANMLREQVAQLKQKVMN; partner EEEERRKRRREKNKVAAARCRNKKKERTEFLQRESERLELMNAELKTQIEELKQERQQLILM"}
{"Substitution": "L38V", "binding fitness [natural log]": 0.0473}
{"Substitution": "V35G", "binding fitness [natural log]": -0.275}
{"Substitution": "L31P", "binding fitness [natural log]": -0.0193}
{"Substitution": "A49P", "binding fitness [natural log]": -0.943}
{"Substitution": "V56F", "binding fitness [natural log]": -0.471}
{"Substitution": "Q41M", "binding fitness [natural log]": 0.301}
{"Substitution": "T48F", "binding fitness [natural log]": 0.163}
{"Substitution": "R30Q", "binding fitness [natural log]": 0.291}
{"Substitution": "L52R", "binding fitness [natural log]": -0.66}
{"Substitution": "K36D", "binding fitness [natural log]": 0.267}
{"Substitution": "S47G", "binding fitness [natural log]": 0.315}
{"Substitution": "V56A", "binding fitness [natural log]": -0.0182}
{"Substitution": "L45T", "binding fitness [natural log]": -0.398}
{"Substitution": "E32A", "binding fitness [natural log]": 0.464}
{"Substitution": "A57P", "binding fitness [natural log]": -0.613}
{"Substitution": "S43T", "binding fitness [natural log]": 0.338}
{"Substitution": "A49W", "binding fitness [natural log]": 0.179}
{"Substitution": "Q41T", "binding fitness [natural log]": 0.235}
{"Substitution": "L38W", "binding fitness [natural log]": -0.00949}
{"Substitution": "Q55I", "binding fitness [natural log]": 0.235}
{"Substitution": "T48L", "binding fitness [natural log]": 0.224}
{"Substitution": "E32I", "binding fitness [natural log]": 0.0437}
{"Substitution": "E44F", "binding fitness [natural log]": 0.253}
{"Substitution": "A49V", "binding fitness [natural log]": 0.251}
{"Substitution": "I28K", "binding fitness [natural log]": 0.299}
{"data": "Block 2", "target": "Sal-like protein 4, full length isoform A (SALL4, Homo sapiens, UniProt Q9UJQ4, residues 1-1053)", "method": "universal PBM", "molecule type": "double-stranded DNA, one strand shown", "medium": "in vitro", "concentration": "600 nM", "setting": "8-mer, flanks averaged, mean of replicates", "direction": "higher = stronger binding", "UniProt Q9UJQ4, sequence (whole entry, looked up)": "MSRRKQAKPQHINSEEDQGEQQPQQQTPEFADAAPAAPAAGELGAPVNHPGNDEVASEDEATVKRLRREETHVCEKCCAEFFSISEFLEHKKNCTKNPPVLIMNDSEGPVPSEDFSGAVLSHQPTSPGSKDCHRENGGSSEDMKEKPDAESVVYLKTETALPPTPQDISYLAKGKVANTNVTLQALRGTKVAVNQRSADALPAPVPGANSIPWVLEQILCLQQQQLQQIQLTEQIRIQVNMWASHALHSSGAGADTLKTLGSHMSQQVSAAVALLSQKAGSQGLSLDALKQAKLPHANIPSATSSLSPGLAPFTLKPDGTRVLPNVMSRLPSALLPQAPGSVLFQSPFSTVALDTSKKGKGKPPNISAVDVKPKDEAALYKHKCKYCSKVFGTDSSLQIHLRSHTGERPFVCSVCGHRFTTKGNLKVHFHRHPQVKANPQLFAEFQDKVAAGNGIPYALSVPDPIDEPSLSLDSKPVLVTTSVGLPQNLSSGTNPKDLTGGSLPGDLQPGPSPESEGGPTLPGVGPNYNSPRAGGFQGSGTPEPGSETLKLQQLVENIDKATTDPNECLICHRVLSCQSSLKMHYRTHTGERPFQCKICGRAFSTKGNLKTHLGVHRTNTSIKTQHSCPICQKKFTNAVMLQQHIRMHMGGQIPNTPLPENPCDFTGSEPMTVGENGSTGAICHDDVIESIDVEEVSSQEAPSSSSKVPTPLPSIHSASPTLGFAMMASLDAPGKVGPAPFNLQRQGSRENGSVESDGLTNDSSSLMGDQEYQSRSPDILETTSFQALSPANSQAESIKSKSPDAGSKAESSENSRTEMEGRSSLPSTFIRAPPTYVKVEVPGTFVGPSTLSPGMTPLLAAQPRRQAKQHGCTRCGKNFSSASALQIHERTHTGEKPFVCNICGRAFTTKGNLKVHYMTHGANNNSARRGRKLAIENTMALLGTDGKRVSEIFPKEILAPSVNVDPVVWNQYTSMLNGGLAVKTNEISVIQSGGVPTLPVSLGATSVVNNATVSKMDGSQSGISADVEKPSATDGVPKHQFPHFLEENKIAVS"}
{"Sequence": "ACTTGGGC", "E-score": -0.186}
{"Sequence": "AGCCTCGA", "E-score": -0.132}
{"Sequence": "GTACCGTA", "E-score": 0.00312}
{"Sequence": "AAAGGAGT", "E-score": 0.0701}
{"Sequence": "AACGAGTC", "E-score": 0.111}
{"Sequence": "AGTTCAAT", "E-score": 0.096}
{"Sequence": "CCAAGATC", "E-score": -0.0866}
{"Sequence": "GATCCCGA", "E-score": -0.207}
{"Sequence": "ACCACTAC", "E-score": -0.0895}
{"Sequence": "GGGCTAGA", "E-score": -0.165}
{"Sequence": "TACGCACA", "E-score": 0.122}
{"Sequence": "GTCCGGTA", "E-score": -0.0997}
{"Sequence": "TAAGCGAA", "E-score": 0.0831}
{"Sequence": "AGAGTGAG", "E-score": 0.0633}
{"Sequence": "TCTGAAGA", "E-score": -0.0435}
{"Sequence": "ACTATGAG", "E-score": 0.114}
{"Sequence": "CATCCTAC", "E-score": 0.00571}
{"Sequence": "ACTATACG", "E-score": 0.0733}
{"Sequence": "CGAGTCAG", "E-score": -0.117}
{"Sequence": "ATACCGCC", "E-score": -0.13}
{"data": "Block 3", "target": "ABI1, truncated, D143A, DHFR fusion (Arabidopsis thaliana)", "method": "DHFR PCA, deep sequencing", "medium": "yeast", "setting": "methotrexate growth selection, single substitutions", "added": "(+)-ABA 17 µM", "reference": "wild-type fitted maximum", "direction": "higher = stronger binding", "starting sequence": "PYL1, truncated, DHFR fusion (Arabidopsis thaliana); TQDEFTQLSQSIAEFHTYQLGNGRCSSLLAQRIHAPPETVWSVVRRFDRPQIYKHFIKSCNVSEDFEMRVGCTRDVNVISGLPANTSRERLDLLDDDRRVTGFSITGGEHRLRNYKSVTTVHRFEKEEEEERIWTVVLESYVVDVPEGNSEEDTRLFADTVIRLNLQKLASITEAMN; partner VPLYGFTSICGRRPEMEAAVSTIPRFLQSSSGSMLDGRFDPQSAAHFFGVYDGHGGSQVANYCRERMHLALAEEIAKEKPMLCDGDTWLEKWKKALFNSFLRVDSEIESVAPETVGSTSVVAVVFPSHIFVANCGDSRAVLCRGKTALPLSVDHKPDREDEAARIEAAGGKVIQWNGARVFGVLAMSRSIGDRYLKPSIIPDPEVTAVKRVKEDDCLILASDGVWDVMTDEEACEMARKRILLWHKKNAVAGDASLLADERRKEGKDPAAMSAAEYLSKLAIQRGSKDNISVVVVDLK"}
{"Substitution": "Q7V", "relative binding score": "82.3%"}
{"Substitution": "E64C", "relative binding score": "76.6%"}
{"Substitution": "L169K", "relative binding score": "1.81%"}
{"Substitution": "A158E", "relative binding score": "-5.65%"}
{"Substitution": "S63D", "relative binding score": "91.7%"}
{"Substitution": "Q167Y", "relative binding score": "42.4%"}
{"Substitution": "V143I", "relative binding score": "6.54%"}
{"Substitution": "I105T", "relative binding score": "37.8%"}
{"Substitution": "E174I", "relative binding score": "31.1%"}
{"Substitution": "I172W", "relative binding score": "31.4%"}
{"Substitution": "E147I", "relative binding score": "72.8%"}
{"Substitution": "H122L", "relative binding score": "11.7%"}
{"Substitution": "V136A", "relative binding score": "34.6%"}
{"Substitution": "Y115L", "relative binding score": "8.24%"}
{"Substitution": "E130R", "relative binding score": "84.4%"}
{"Substitution": "S26C", "relative binding score": "82.5%"}
{"Substitution": "S117E", "relative binding score": "-22.4%"}
{"Substitution": "I133T", "relative binding score": "93%"}
{"Substitution": "I52S", "relative binding score": "78.2%"}
{"Substitution": "E89A", "relative binding score": "-20.6%"}
{"Substitution": "I33D", "relative binding score": "-2.57%"}
{"Substitution": "R113F", "relative binding score": "61.6%"}
{"Substitution": "G21N", "relative binding score": "78%"}
{"Substitution": "T119I", "relative binding score": "57.5%"}
{"Substitution": "L166R", "relative binding score": "0.712%"}
{"data": "Block 4", "target": "Prothrombin, mature alpha-thrombin (F2, Homo sapiens, UniProt P00734)", "method": "aptamer microarray, sandwich", "molecule type": "DNA with 2'F-ANA", "medium": "in vitro", "concentration": "200 nM", "setting": "whole 15-mer aptamer, many near background", "added": "Cy3 exosite-II aptamer, 400 nM", "direction": "higher = stronger binding", "sequence": "GGTTGGTGTGGTTGG"}
{"Modification": "2'F-ANA at 4 5", "mean fluorescence intensity [a.u.]": 67.2}
{"Modification": "2'F-ANA at 1 2 3 6 7 11 13 15", "mean fluorescence intensity [a.u.]": 232}
{"Modification": "2'F-ANA at 1 3 4 5 6 7 8 9 10 12 14 15", "mean fluorescence intensity [a.u.]": 48.8}
{"Modification": "2'F-ANA at 1 2 6 8 10 12 14 15", "mean fluorescence intensity [a.u.]": 62.6}
{"Modification": "2'F-ANA at 5 6 8 10", "mean fluorescence intensity [a.u.]": 119}
{"Modification": "2'F-ANA at 1 4 5 6 9 13 14", "mean fluorescence intensity [a.u.]": 45.5}
{"Modification": "2'F-ANA at 2 3 4 5 7 8 9 11 12 13 14 15", "mean fluorescence intensity [a.u.]": 54.2}
{"Modification": "2'F-ANA at 3 4 7 8 9 10 12 14 15", "mean fluorescence intensity [a.u.]": 206}
{"Modification": "2'F-ANA at 2 4 6 11 12 13 14 15", "mean fluorescence intensity [a.u.]": 88}
{"Modification": "2'F-ANA at 1 4 5 7 9 13 14 15", "mean fluorescence intensity [a.u.]": 75.5}
{"Modification": "2'F-ANA at 1 3 10 12 13 14 15", "mean fluorescence intensity [a.u.]": 63.8}
{"Modification": "2'F-ANA at 3 4 5 7 8 9 11 12 14", "mean fluorescence intensity [a.u.]": 59}
{"Modification": "2'F-ANA at 4 5 6 9 10 11 12 15", "mean fluorescence intensity [a.u.]": 59.1}
{"Modification": "2'F-ANA at 6 13 14", "mean fluorescence intensity [a.u.]": 170}
{"Modification": "2'F-ANA at 1 2 3 5 6 7 10 11 13", "mean fluorescence intensity [a.u.]": 46.8}
{"Modification": "2'F-ANA at 2 3 4 5 8 15", "mean fluorescence intensity [a.u.]": 103}
{"Modification": "2'F-ANA at 4 5 8 9 10 12 14", "mean fluorescence intensity [a.u.]": 47.1}
{"Modification": "2'F-ANA at 1 6 10 11 15", "mean fluorescence intensity [a.u.]": 65.3}
{"Modification": "2'F-ANA at 1 4 5 7 8 10 11 12", "mean fluorescence intensity [a.u.]": 47.8}
{"Modification": "2'F-ANA at 1 2 4 5 7 8 10 13", "mean fluorescence intensity [a.u.]": 67.1}
{"note": "For quick reference, copied from above (block 1):"}
{"Substitution": "L45T", "binding fitness [natural log]": -0.398}
{"Substitution": "E32A", "binding fitness [natural log]": 0.464}
{"Substitution": "A57P", "binding fitness [natural log]": -0.613}
{"Substitution": "S43T", "binding fitness [natural log]": 0.338}
{"Substitution": "A49W", "binding fitness [natural log]": 0.179}
{"Substitution": "Q41T", "binding fitness [natural log]": 0.235}
